Results pooled from the literature.
Each line is one published result; not all experiments were run side by side. pIC50: −log10 of the molar value.
PAK4: Serine/threonine-protein kinase PAK 4 (PAK4, Homo sapiens, UniProt O96013)
UniProt O96013, sequence (whole entry, looked up): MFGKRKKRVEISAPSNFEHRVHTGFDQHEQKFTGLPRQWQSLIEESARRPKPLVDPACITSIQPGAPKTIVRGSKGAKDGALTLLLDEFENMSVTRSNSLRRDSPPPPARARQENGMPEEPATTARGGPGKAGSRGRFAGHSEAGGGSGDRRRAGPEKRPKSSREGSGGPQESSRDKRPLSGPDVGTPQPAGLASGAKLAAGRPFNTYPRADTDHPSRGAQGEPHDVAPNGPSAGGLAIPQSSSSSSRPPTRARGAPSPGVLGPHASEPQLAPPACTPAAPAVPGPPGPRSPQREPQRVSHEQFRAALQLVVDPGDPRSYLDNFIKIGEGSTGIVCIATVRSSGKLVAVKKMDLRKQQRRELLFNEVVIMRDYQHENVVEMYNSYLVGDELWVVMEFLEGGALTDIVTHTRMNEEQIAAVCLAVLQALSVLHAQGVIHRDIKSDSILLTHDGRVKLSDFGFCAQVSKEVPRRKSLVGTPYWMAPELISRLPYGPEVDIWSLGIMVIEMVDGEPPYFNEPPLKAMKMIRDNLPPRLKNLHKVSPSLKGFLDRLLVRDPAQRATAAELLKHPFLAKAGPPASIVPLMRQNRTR
CA9: Carbonic anhydrase 9 (CA9, Homo sapiens, UniProt Q16790)
UniProt P23443, sequence (whole entry, looked up): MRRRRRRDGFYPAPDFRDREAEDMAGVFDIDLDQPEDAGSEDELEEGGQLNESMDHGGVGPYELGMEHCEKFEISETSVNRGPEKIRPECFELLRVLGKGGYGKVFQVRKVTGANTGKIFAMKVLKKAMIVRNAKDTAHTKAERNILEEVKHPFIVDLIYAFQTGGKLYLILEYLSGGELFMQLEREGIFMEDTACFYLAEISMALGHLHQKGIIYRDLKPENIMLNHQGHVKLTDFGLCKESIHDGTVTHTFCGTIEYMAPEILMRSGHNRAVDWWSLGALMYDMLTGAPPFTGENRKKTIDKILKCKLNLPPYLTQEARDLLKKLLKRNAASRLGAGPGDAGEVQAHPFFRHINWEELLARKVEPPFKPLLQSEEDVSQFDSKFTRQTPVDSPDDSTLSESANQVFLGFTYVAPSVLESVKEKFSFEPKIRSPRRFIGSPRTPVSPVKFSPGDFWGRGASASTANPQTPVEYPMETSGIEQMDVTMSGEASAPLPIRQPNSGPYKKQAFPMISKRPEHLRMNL

Structure (SMILES) | target | test | setting | measurement | result
COc1cc(-c2cncc3c2CN(C)Cc2cc(N4CCNCC4)ccc2-3)cc(OC)c1OC | MTOR (Homo sapiens, UniProt P42345) | enzyme activity, inhibitor | 1 µM | remaining activity | 102%
C1=C/COCc2cc(ccc2OCCN2CCCC2)Nc2nccc(n2)-c2cccc(c2)COC/1 | FLT3 (Homo sapiens, UniProt P36888, F691L/ITD) | cell-free assay | 0.1 µM | remaining signal | 2.2%
C=CC(=O)N1CCC(COCC(=O)N2CCN(c3nc(-c4cnc(N)nc4C(F)F)nc(N4CCOC[C@@H]4C)n3)CC2)CC1 | FLT3 (Homo sapiens, UniProt P36888, R834Q) | binding, competition with immobilised ligand | 1 µM | remaining binding | 77%
CNc1ncc2c(/C=C/C(=O)N3CCC(OC)CC3)nn(Cc3cccc(C(F)(F)F)c3)c2n1 | PAK4 | enzyme activity, inhibitor, radiometric | 1 µM | remaining activity | 92%
CN(CC(=O)Nc1ccc(N2CCOCC2)cc1)C(=O)c1ccc(S(N)(=O)=O)c(Cl)c1 | CA9 | enzyme activity, inhibitor |  | pIC50 | 7.10
Cc1cc([C@@H](C)Nc2ccccc2C(=O)O)c2nc(N3CCC(F)(F)CC3)c(C#N)c(=O)n2c1 | PAK4 | binding, competition with immobilised ligand | 10 µM | remaining binding | 100%
[2H]c1c([2H])c([C@]2([2H])CCCN2C(=O)C(C)(C)Oc2ccc3cn[nH]c3c2)c([2H])c([2H])c1C([2H])([2H])[2H] | RPS6KB1 (Homo sapiens, UniProt P23443) | binding, competition with immobilised ligand | 1 µM | remaining binding | 94%
CC(SC1=NNC(=C2C=Nc3ccccc32)N1c1ccc(Cl)cc1)C(=O)Nc1ccc(S(N)(=O)=O)cc1 (centres unmarked) | CA9 | enzyme activity, inhibitor |  | pIC50 | 6.77
